Results collected from several papers.
Numbered parts are unrelated; each lists some results of a single study. Numbers after ± are the reported error.

Study 1
Target: icaR full length assumed (Staphylococcus epidermidis, UniProt Q5HKQ1)
Technique: EMSA
Molecule type: double-stranded DNA, one strand shown
Each molecule: dsDNA
Target sequence (chain): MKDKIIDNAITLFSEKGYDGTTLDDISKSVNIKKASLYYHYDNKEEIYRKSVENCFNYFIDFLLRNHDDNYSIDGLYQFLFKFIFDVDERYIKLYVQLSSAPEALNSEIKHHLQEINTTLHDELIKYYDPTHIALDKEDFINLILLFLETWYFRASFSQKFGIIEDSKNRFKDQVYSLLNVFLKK
For `CCTAACTAACGAAAGGTAGGTGAAAAAA`, binding read “binds”.
`CACCTACCTTTCGAAAGGTAGGTG`: binding “binds”.
`TATGCTTTACAACCTAACTAACGAAAGG` — result for binding: “no binding”.

Single results of other studies
mwoIR full length assumed: mwoIR full length assumed (Methanothermobacter wolfeii, UniProt O59646)
Chain of UniProt O59646 (whole entry, unmodified, looked up): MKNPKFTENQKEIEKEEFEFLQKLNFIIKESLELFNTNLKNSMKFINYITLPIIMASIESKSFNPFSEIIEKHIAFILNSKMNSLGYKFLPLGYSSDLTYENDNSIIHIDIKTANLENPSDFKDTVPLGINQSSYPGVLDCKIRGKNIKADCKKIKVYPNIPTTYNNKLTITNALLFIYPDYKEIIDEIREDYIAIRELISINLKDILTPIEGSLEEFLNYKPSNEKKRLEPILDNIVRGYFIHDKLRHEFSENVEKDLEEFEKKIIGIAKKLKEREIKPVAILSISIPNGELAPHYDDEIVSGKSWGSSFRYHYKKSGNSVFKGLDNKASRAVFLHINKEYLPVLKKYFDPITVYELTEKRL
The Kd of `GACAGTGCTATCTCAGCGACAGT (dsDNA)` is reported as 0.0069 ± 0.00093 nM (mwoIR full length assumed; filter binding; double-stranded DNA, one strand shown; with: Ca2+ 10 mM).
Under binding, `CGTAATCTGCAGGCATGGTCAATTT (ssDNA)` is recorded as “no binding” (gene 4 protein primase domain, 1-271 K122A (Escherichia phage T7, UniProt P03692); SPR; single-stranded DNA).
For `GACAGTGCGATCTCCGCGACAGT (dsDNA)`, the Kd was 0.0277 ± 0.0026 nM (mwoIR full length assumed S310E (Methanothermobacter wolfeii, UniProt O59646); filter binding; double-stranded DNA, one strand shown; with: Ca2+ 10 mM).
For `RNA polymerase II CTD 19-residue peptide, phosphoserine S2 (Homo sapiens) (sequence not shown)`, the Kd was 6800 nM (RPRD1B CID (Homo sapiens); ITC; read off a plot).
`GACAGTGCCATCTCGGCGACAGT (dsDNA)` gave a Kd of 0.305 ± 0.0566 nM (mwoIR full length assumed S310R (Methanothermobacter wolfeii, UniProt O59646); filter binding; double-stranded DNA, one strand shown; with: Ca2+ 10 mM).
With `GACAGTGCAATCTCTGCGACAGT (dsDNA)` the Kd was 0.00595 ± 0.00061 nM (mwoIR full length assumed; filter binding; double-stranded DNA, one strand shown; with: Ca2+ 10 mM).
